Measured values of several laboratories.
Each line is one published result; not all experiments were run side by side. “And” joins repeats or separate records; there may be more than shown. Numbers after ± are the reported error.
TAGLN: Transgelin (TAGLN, Homo sapiens, UniProt Q01995)
ACOT11: Acyl-coenzyme A thioesterase 11 (ACOT11, Homo sapiens, UniProt Q8WXI4)

The Kd of `NCCC(=O)O` is reported as 872 ± 1470 µM (Sodium- and chloride-dependent taurine transporter (SLC6A6, Homo sapiens, UniProt P31641, S402A)).
The EC50 of `Clc1cc(Nc2ncnc3ccc(-c4cccc(N5CCOCC5)c4)cc23)ccc1OCc1ccccc1` is reported as 19 µM (Leishmania major; intracellular amastigote growth, luciferase; RAW264.7 macrophages).
The Kd of `Cn1ncc2cc(-c3cncc(Cl)c3N3CCC4(CCNC4=O)CC3)ccc21` is reported as 13 µM (Protein kinase C delta type (PRKCD, Homo sapiens, UniProt Q05655); cell-free assay; lysate).
For `Fc1cccc(COc2ccc(Nc3ncnc4ccc(-c5ccc(CN6CCOCC6)cc5)cc34)cc2Cl)c1`, the EC50 was 5.9 µM (Leishmania major; intracellular amastigote growth, luciferase; RAW264.7 macrophages).
`COc1ccc(/C=C/c2c(/C=C/C(=O)OC(Cc3ccc(O)c(O)c3)C(=O)O)ccc(OC)c2OC)cc1OC` (stereo not drawn) has a Kd of 35.4 µM (TAGLN; binding, surface plasmon resonance).
With `O=C(NO)c1cnc(NC2(c3cccc(F)c3)CCCCC2)nc1` the Kd was over 30.2 µM (Aldehyde dehydrogenase, mitochondrial (ALDH2, Homo sapiens, UniProt P05091); inhibitor, competition pulldown; SW620 and MV4-11 lysate; 1 h).
The Kd of `Nc1ccn(-c2ccc(F)cc2)c(=O)c1` is reported as over 400 µM (Phospholipid hydroperoxide glutathione peroxidase GPX4 (GPX4, Homo sapiens, UniProt P36969); binder, HSQC NMR titration; DLPC/DPC micelles).
With `CC(NC(=O)[C@H](NC(=O)[C@H](NC(=O)CCC(C)(C)C)C(C)(C)O)[C@H](C)c1ccccc1)C(=O)N1CCC[C@H]1c1ccccc1` (stereo partly drawn) the Kd was 44.5 µM (Ras GTPase-activating protein-binding protein 1 (G3BP1, Homo sapiens, UniProt Q13283); binding, SPR).
`CC(=O)Oc1ccc(NC(=O)Cc2ccccc2)c(C(=O)O)c1` has a Kd of 17.5 µM (ACOT11; binding, microscale thermophoresis).
The IC50 of `Cc1nn(-c2cccc(N)c2)c(=O)c2cnc(Nc3ccc(N4CCNCC4)cc3)nc12` is reported as 0.85 µM (Macrophage colony-stimulating factor 1 receptor (CSF1R, Homo sapiens, UniProt P07333); enzyme activity, inhibitor).
For `Cc1ncsc1-c1ccc(CNC(=O)[C@@H]2C[C@@H](O)CN2C(=O)[C@@H](NC(=O)C2(F)CC2)C(C)(C)C)c(OCCC2CN(c3nc(NCC(C)(C)C4(O)CCOC4)nc(N4CCC[C@H]4Cn4ccnn4)n3)C2)c1` (stereo partly drawn), the Kd was 1.7 µM (VHL/BRD9 (Homo sapiens, UniProt P40337+Q9H8M2); ternary binding, SPR; together with: VCB at 2 µM).
`CCOC(=O)c1ccc(OCC(=NO)c2ccc(O)cc2O)cc1` gave a Kd of 0.83 µM (B- and T-lymphocyte attenuator (BTLA, Homo sapiens, UniProt Q7Z6A9); microscale thermophoresis).
The Kd of `CC(=O)N[C@H]1[C@@H](OP(=O)(O)OP(=O)(O)OC[C@H]2O[C@@H](n3ccc(=O)[nH]c3=O)[C@H](O)[C@@H]2O)O[C@H](CO)[C@@H](O)[C@@H]1O` is reported as 297 µM (Histo-blood group ABO system transferase (ABO, Homo sapiens, UniProt P16442, G268A/L266G); binding, NMR).
For `CC[C@H](C)[C@H](NC(=O)[C@@H](NC(=O)c1cccc(Cl)c1Cl)C(C)(C)C)C(=O)N[C@H](C(=O)N[C@H](C(=O)N[C@H](C(=O)N[C@@H](Cc1ccc(O)cc1)C(=O)N[C@H](CCC(=O)O)C(=O)N[C@@H](Cc1ccc(F)cc1)C(=O)N[C@@H](Cc1c[nH]cn1)C(=O)NCCC(=O)N[C@@H](CCCCNC(=S)Nc1ccc2c(c1)C(=O)OC21c2ccc(O)cc2Oc2cc(O)ccc21)C(N)=O)[C@@H](C)O)[C@@H](C)CC)C(C)(C)C`, the Kd was 0.012 ± 0.004 µM (Protein phosphatase 3 catalytic subunit alpha, with calcineurin B (PPP3CA, Homo sapiens, UniProt Q08209); binding, fluorescence polarisation; GST-calcineurin, together with: FITC-labelled peptide).
`O=C(/C=C/c1ccc(O)c(O)c1CCc1ccc(O)c(O)c1)OC(Cc1ccc(O)c(O)c1)C(=O)O` (stereo not drawn) gave a Kd of 19.2 µM (TAGLN; binding, surface plasmon resonance).
`Cc1[nH]c2ccccc2c1C(c1cccs1)N1CCN(C(=O)C(C)C)CC1` (stereo not drawn) has a Kd of 0.67 µM (ACOT11; binding, microscale thermophoresis).
With `CCOC(=O)C(CCCCNC(=O)/C=C/c1ccc(O)c(O)c1/C=C/c1ccc(O)c(O)c1)Cc1ccccc1` (stereo not drawn) the Kd was 191 µM (TAGLN; binding, surface plasmon resonance).
`NC(=O)C[C@@H]1NC(=O)[C@H](Cc2ccc(O)cc2)NC(=O)CNC(=O)CNC(=O)[C@H](CCC(=O)O)NC(=O)[C@H](CCC(=O)O)NC(=O)[C@H](Cc2ccccc2)NC(=O)[C@@H]2CCCN2C1=O` gave a Kd of 9.23 µM and 10.7 µM and 9.62 µM (EH domain-containing protein 1, EH domain (Homo sapiens, UniProt Q9H4M9); peptide binding, ITC; 20 °C, 150 mM NaCl).

Some of these lines once more:
With `CC(NC(=O)[C@H](NC(=O)[C@H](NC(=O)CCC(C)(C)C)C(C)(C)O)[C@H](C)c1ccccc1)C(=O)N1CCC[C@H]1c1ccccc1` (stereo partly drawn) the Kd was 44.5 µM (Ras GTPase-activating protein-binding protein 1 (G3BP1, Homo sapiens, UniProt Q13283); binding, SPR).
